Measured values collected from several papers.
Parts stem from different laboratories: compare values within a part only. Values joined by “and” are separate records of one study, mostly repeats; a detail may differ.
UniProt P04049, sequence (whole entry, looked up): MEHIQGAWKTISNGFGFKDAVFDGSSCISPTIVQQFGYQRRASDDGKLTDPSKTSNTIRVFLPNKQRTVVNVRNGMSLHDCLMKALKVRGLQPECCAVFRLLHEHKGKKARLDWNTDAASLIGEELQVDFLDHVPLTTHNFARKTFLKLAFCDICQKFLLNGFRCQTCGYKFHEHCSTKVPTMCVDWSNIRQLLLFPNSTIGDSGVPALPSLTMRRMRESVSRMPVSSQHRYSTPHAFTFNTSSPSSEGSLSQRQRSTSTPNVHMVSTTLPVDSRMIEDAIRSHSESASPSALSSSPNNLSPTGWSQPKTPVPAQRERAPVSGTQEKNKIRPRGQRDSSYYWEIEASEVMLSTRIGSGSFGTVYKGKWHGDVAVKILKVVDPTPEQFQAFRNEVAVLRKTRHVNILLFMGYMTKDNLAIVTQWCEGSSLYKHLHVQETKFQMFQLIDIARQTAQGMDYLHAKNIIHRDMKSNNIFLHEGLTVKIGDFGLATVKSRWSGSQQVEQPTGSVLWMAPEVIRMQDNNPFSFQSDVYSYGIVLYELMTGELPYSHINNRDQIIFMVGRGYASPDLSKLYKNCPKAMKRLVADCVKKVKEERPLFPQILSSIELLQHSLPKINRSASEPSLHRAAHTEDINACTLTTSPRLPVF
UniProt Q9Y4K4, sequence (whole entry, looked up): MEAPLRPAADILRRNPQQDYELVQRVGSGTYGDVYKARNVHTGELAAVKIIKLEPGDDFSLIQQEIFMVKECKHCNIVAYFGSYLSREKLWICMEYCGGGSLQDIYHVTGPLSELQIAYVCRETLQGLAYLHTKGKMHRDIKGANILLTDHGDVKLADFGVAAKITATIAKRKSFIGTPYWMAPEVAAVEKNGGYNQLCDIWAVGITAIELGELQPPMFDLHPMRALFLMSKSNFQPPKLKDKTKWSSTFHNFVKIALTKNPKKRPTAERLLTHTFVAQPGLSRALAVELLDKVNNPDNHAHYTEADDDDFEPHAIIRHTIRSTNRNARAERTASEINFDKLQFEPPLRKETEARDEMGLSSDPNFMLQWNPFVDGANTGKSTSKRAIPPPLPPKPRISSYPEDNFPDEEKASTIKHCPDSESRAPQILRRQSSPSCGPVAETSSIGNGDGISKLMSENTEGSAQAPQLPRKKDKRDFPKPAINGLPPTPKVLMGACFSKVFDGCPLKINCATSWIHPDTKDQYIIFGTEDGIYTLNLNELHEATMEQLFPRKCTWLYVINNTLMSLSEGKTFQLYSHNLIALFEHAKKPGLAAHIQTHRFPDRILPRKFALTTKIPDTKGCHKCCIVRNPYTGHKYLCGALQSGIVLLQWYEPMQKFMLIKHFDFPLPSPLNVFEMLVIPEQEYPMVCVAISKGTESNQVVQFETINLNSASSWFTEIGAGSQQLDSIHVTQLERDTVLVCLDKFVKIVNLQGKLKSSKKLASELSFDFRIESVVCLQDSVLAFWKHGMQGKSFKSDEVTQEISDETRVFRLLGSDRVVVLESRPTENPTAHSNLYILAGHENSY
UniProt Q92630, sequence (whole entry, looked up): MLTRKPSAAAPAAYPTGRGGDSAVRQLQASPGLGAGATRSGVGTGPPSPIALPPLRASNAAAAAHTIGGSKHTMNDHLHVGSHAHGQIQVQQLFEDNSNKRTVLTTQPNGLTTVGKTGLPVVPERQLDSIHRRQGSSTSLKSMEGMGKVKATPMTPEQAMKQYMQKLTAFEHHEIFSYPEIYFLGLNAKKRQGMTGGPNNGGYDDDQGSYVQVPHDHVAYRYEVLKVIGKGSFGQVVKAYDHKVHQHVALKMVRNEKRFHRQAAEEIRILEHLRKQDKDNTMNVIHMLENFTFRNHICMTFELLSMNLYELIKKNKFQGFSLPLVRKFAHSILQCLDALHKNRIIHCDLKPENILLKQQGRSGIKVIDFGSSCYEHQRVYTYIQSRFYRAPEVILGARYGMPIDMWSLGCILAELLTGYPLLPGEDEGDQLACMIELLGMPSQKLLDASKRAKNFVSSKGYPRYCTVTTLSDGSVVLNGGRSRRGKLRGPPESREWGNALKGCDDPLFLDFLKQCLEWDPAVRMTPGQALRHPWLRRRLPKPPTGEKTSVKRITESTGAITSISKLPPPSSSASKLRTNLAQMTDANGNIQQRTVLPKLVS
UniProt Q16620, sequence (whole entry, looked up): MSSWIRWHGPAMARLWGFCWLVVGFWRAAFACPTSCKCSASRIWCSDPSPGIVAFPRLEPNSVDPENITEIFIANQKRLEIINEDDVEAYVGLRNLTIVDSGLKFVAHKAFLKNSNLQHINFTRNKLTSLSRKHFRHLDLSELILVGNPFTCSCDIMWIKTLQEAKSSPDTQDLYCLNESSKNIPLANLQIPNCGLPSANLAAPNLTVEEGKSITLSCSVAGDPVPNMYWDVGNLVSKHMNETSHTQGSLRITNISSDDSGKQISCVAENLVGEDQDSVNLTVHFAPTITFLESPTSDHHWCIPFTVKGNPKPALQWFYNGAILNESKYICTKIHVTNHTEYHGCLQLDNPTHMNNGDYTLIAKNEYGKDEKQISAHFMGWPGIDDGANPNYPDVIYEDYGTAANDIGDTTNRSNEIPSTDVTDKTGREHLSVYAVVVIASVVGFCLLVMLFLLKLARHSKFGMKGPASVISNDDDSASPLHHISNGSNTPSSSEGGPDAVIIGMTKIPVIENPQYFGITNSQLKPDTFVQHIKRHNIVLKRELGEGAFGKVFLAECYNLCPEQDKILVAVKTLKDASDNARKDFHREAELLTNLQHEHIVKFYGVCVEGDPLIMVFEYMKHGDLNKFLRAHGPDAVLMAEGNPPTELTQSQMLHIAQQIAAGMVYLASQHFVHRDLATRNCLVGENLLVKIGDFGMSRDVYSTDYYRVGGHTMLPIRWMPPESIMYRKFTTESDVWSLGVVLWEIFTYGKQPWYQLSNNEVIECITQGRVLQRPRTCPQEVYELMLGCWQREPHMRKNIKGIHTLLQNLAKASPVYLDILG
UniProt Q99986, sequence (whole entry, looked up): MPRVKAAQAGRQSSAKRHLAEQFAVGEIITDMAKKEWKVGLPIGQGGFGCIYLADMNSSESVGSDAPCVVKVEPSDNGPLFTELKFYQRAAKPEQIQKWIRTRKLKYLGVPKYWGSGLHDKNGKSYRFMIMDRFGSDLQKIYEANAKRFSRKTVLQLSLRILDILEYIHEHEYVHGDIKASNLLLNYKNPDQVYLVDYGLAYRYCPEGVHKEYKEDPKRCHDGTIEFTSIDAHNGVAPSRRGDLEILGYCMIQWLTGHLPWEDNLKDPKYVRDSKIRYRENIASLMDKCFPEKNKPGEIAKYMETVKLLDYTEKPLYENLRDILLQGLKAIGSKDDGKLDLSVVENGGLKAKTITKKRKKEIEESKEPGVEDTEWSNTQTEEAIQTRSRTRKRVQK
UniProt P09619, sequence (whole entry, looked up): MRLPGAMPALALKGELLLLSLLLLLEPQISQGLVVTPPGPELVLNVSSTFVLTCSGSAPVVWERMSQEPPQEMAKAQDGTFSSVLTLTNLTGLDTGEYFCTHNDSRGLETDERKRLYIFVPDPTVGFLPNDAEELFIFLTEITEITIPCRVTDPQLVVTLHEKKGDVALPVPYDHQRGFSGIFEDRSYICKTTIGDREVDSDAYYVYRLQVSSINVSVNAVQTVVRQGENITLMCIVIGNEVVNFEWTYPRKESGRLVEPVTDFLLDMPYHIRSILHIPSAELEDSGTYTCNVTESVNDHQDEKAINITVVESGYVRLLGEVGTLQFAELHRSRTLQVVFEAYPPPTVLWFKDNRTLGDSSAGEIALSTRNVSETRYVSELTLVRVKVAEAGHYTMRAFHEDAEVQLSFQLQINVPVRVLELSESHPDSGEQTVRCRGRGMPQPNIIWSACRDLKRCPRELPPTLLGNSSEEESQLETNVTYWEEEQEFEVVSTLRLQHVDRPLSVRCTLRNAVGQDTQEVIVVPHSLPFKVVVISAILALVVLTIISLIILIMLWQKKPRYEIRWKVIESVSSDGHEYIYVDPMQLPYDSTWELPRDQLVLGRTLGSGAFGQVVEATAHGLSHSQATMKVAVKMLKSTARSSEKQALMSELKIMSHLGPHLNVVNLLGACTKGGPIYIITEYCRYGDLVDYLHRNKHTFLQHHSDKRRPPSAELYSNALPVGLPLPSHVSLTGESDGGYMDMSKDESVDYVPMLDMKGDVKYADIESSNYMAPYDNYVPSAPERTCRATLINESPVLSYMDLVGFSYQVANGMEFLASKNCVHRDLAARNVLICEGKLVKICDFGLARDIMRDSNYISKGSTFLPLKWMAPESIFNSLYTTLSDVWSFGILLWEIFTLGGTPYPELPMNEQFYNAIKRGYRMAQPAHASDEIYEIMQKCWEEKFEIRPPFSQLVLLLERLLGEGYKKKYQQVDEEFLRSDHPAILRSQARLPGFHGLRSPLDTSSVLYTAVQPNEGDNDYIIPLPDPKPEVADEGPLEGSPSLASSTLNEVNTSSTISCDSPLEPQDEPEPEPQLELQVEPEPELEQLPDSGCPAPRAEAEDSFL

Set 1 — observed: ligand displacement; tested at: 10 µM
Target: 5-hydroxytryptamine receptor 2C (HTR2C, Homo sapiens, UniProt P28335)
UniProt P28335, sequence (whole entry, looked up): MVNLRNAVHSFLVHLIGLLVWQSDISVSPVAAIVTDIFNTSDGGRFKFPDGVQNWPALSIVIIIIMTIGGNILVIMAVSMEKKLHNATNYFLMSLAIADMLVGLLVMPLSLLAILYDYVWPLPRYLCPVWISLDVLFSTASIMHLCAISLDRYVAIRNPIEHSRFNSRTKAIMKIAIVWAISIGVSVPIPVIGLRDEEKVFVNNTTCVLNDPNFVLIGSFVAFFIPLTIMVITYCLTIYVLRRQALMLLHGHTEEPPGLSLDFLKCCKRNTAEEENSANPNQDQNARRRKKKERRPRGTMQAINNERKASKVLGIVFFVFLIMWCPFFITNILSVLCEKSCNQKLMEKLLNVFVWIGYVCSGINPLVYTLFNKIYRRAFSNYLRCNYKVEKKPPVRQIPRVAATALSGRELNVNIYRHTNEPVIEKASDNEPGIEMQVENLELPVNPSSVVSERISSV
`N#CN1CC[C@@H](C(=O)Nc2nc3c(s2)CN(C(=O)CN=[N+]=[N-])CC3)C1` has an inhibition of 6.22%.
`Nc1c(C(=O)NCc2ccc(C(=O)NCCCC3CCCCC3)cc2)cnn1-c1ccccc1` gave an inhibition of 10%.
For `O=C(NCc1ncc(C(F)(F)F)cc1Cl)c1ccc2c(c1)C1(CCS(=O)(=O)CC1)[C@@H](C1CC1)N2S(=O)(=O)c1ccc(F)cc1`, the inhibition was 16.9%.
`Cc1ccc(-c2cnc([C@@]3(O)CC[C@H](C(=O)O)C(C)(C)C3)s2)cc1Nc1cccc(C(F)(F)F)n1` gave an inhibition of 4.21%.
`CCS(=O)(=O)c1cc2cc(C[C@](O)(CC(C)(C)c3ccc(F)cc3C(N)=O)C(F)(F)F)[nH]c2cn1` has an inhibition of 0.64%.
With `CN([C@@H]1CCc2c(CC(=O)O)c3ccccc3n2C1)S(=O)(=O)c1ccc(F)cc1` the inhibition was -1.51%.
The inhibition of `COc1ccc2c(c1)O[C@H](c1ccc(OC)c(OC)c1)C[C@@H]2NC(=O)C1(c2ccc3c(c2)OC(F)(F)O3)CC1` is reported as -2.28%.
For `O=C(NC[C@@H]1[C@H]2CN(C(=O)OCc3cc(C(F)(F)F)cc(C(F)(F)F)c3)C[C@@H]12)c1ccc2[nH]nnc2c1`, the inhibition was 41.5%.
`COc1cccc(CNC(=O)c2nc3scc(COCc4ccc(C(=O)O)cc4)c3c(=O)[nH]2)c1` has an inhibition of 12.5%.
With `N#Cc1ccc(Nc2ccc3[nH]c(=O)[nH]c3c2)c(Cl)c1` the inhibition was -9.96%.
With `O=C(N[C@H]1CCCCC/C=C\C2C[C@@]2(C(=O)O)NC(=O)[C@@H]2C[C@@H](Oc3ccncc3)CN2C1=O)OC1CCCC1` (stereo partly shown) the inhibition was 7.99%.
`CC(=O)Nc1ncc(CN2CCC[C@H](Cc3cc(C)nc(C)c3)C2)s1` gave an inhibition of 15.2%.
The inhibition of `CC1CCN(c2ccnc(NCc3cn(C)cn3)n2)CC1` is reported as 89.2%.

Set 2 — organism: Cryptosporidium parvum; cell line: HCT-8; strain: nanoluciferase-expressing
Structure (SMILES): CNC(=O)c1ccc(-c2cnn3ccc(C(=O)N(C)c4ccc(Cl)c(C(=O)OC)c4)cc23)cc1
For time-kill; 0.00914 µM, 24 h; higher = more parasites: parasite luminescence read 93200 RLU and 76800 RLU.
It gave 23100 RLU and 21200 RLU for parasite luminescence (time-kill; 0.7407 µM, 72 h; higher = more parasites).
time-kill; 20 µM, 24 h; higher = more parasites — parasite luminescence: 99100 RLU and 89600 RLU.
time-kill; 6.667 µM, 8 h; higher = more parasites — parasite luminescence: 117000 RLU and 100000 RLU.
For washout; concentration not given, exposure 0-72 h post-infection, unit not given; relative to: day 0 RLU: parasite luminescence read -1760 and -1790 and -1940 and -1830.
For time-kill; 0.00102 µM, 72 h; higher = more parasites: parasite luminescence read 161000 RLU and 234000 RLU.
For time-kill; 6.667 µM, 4 h; higher = more parasites: parasite luminescence read 88100 RLU and 78300 RLU.
The parasite luminescence was 24900 RLU and 26700 RLU (time-kill; 0.7407 µM, 48 h; higher = more parasites).

Set 3
SMILES: CO[C@@H]1[C@@H](OC(N)=O)[C@@H](O)[C@H](Oc2ccc3c(O)c(NC(=O)c4ccc(O)c(CC=C(C)C)c4)c(=O)oc3c2C)OC1(C)C
For RPE-1 BRCA2-/-; 50 µM, unit not given; relative to: untreated: clonogenic survival read 0.803 and 0.837.
CAPAN-1 BRCA2-corrected; 50 µM — clonogenic survival: 75.4% and 88.4%.
RPE-1 BRCA1-/- PARPi-resistant R2; 100 µM, 12 to 14 d — clonogenic survival: 16.7% and 17.9% and 24.8%.

Set 4 — observed: enzyme activity; mode: inhibitor; tested at: 0.5 µM; relative to: control
Structure (SMILES): COc1ccc2c(c[n+](C)c3c4cc5c(cc4ccc23)OCO5)c1OC
For MAP4K5 (Homo sapiens, UniProt Q9Y4K4): remaining activity read 89.3%.
NTRK2 (Homo sapiens, UniProt Q16620) — remaining activity: 104%.
DYRK2 (Homo sapiens, UniProt Q92630) — remaining activity: 94.5%.
VRK1 (Homo sapiens, UniProt Q99986) — remaining activity: 106%.
RAF1 (Homo sapiens, UniProt P04049) — remaining activity: 96.7%.
It gave 93.5% for remaining activity (PDGFRB (Homo sapiens, UniProt P09619)).
The remaining activity was 101% (TNK2 (Homo sapiens, UniProt Q07912)).

For quick reference, copied from above (set 3):
For RPE-1 BRCA2-/-; 50 µM, unit not given; relative to: untreated: clonogenic survival read 0.803 and 0.837.
CAPAN-1 BRCA2-corrected; 50 µM — clonogenic survival: 75.4% and 88.4%.
RPE-1 BRCA1-/- PARPi-resistant R2; 100 µM, 12 to 14 d — clonogenic survival: 16.7% and 17.9% and 24.8%.
